Assay results collected from several papers.
Compare with care: the assays were run in different laboratories. ± marks the error that the study gave.
gag-pol integrase: Gag-Pol polyprotein, integrase (gag-pol, Human immunodeficiency virus type 1 group M subtype B, UniProt P04585)
gag-pol RT RNase H domain: Gag-Pol polyprotein, RT RNase H domain (gag-pol, Human immunodeficiency virus type 1 group M subtype B, UniProt P04585)
gag-pol reverse transcriptase p66/p51: Gag-Pol polyprotein, reverse transcriptase p66/p51 (gag-pol, Human immunodeficiency virus type 1 group M subtype B, UniProt P04585)

COc1ccc(-c2ccc(Sc3cc(=O)n(O)c(=O)[nH]3)cc2)cc1 — IC50 (gag-pol integrase; strand transfer activity, inhibitor; HIV-1): > 100000 nM
O=C(O)c1ccc(-c2cccc(/C=N/NC(=O)c3ccc(O)c(O)c3)c2)cc1 — IC50 (gag-pol RT RNase H domain; RNase H activity, inhibitor; HIV-1; with: 10 mM Mg2+): 400 ± 200 nM
COc1ccc(N2CCN(Cc3cc(=O)oc4c(O)c(O)ccc34)CC2)cc1 — IC50 (gag-pol reverse transcriptase p66/p51; RNase H activity, inhibitor, fluorescence; HIV-1; pH 7.4, with: 1 mM Mg2+): 2100 nM
COc1cc(/C=C/c2ccc3ccc(C(=O)O)c(O)c3n2)cc(O)c1O — IC50 (Gag-Pol polyprotein, integrase (gag-pol, Human immunodeficiency virus type 1 group M subtype B, UniProt P04585, C1427S); integrase DNA binding, fluorescence anisotropy; full-length integrase, 10 mM Mg2+): 750 nM
O=C(O)c1ccc(-c2cccc(/C=N/NC(=O)c3cc(O)c(O)c(O)c3)c2)cc1 — IC50 (gag-pol RT RNase H domain; RNase H activity; wild-type p66/p51 RT): 200 ± 100 nM
COc1cccc(-c2ccc(Sc3cc(=O)n(O)c(=O)[nH]3)cc2)c1 — IC50 (gag-pol integrase; strand transfer activity, inhibitor; HIV-1): 4000 nM
CCOCn1c(C(=O)c2cc(C)cc(C)c2)c(CC)c(=O)n(O)c1=O — IC50 (gag-pol integrase; strand transfer, inhibitor, gel-based; HIV-1): > 111000 nM
O=c1cc(CN2CCN(C(c3ccccc3)c3ccccc3)CC2)c2ccc(O)c(O)c2o1 — IC50 (gag-pol reverse transcriptase p66/p51; RNase H activity, inhibitor, fluorescence; HIV-1; pH 7.4, with: 1 mM Mg2+): 2200 nM
NC(=O)c1c(N)sc2c1CCCCC2 — IC50 (Gag-Pol polyprotein, RT polymerase domain (gag-pol, Human immunodeficiency virus type 1 group M subtype B, UniProt P04585); RNA-dependent DNA polymerase activity, inhibitor; wild-type RT): > 50000 nM
O=c1cc(CN2CCN(c3cccc(Cl)c3)CC2)c2ccc(O)c(O)c2o1 — IC50 (gag-pol reverse transcriptase p66/p51; RNase H activity, inhibitor; p66/p51 RT heterodimer; pH 8.0, with: 10 mM Mg2+): 400 nM
O=c1cc(Sc2ccccc2-c2ccc(C(F)(F)F)cc2)[nH]c(=O)n1O — IC50 (gag-pol integrase; strand transfer activity, inhibitor; HIV-1): > 100000 nM
CC1(C)CC(NC(=O)C(=O)Nc2ccc(Cl)cc2)CC(C)(C)N1 — IC50 (Gag-Pol polyprotein, reverse transcriptase (gag-pol, Human immunodeficiency virus type 1 group M subtype B, UniProt P04585); enzyme activity, inhibitor): > 300000 nM

For quick reference, copied from above:
O=c1cc(CN2CCN(c3cccc(Cl)c3)CC2)c2ccc(O)c(O)c2o1 — IC50 (gag-pol reverse transcriptase p66/p51; RNase H activity, inhibitor; p66/p51 RT heterodimer; pH 8.0, with: 10 mM Mg2+): 400 nM
O=c1cc(Sc2ccccc2-c2ccc(C(F)(F)F)cc2)[nH]c(=O)n1O — IC50 (gag-pol integrase; strand transfer activity, inhibitor; HIV-1): > 100000 nM
